Earlier results as cited in several papers.
Protocols differ between the studies behind these lines. Numbers after ± are the reported error.
UniProt P19754, sequence (whole entry, looked up): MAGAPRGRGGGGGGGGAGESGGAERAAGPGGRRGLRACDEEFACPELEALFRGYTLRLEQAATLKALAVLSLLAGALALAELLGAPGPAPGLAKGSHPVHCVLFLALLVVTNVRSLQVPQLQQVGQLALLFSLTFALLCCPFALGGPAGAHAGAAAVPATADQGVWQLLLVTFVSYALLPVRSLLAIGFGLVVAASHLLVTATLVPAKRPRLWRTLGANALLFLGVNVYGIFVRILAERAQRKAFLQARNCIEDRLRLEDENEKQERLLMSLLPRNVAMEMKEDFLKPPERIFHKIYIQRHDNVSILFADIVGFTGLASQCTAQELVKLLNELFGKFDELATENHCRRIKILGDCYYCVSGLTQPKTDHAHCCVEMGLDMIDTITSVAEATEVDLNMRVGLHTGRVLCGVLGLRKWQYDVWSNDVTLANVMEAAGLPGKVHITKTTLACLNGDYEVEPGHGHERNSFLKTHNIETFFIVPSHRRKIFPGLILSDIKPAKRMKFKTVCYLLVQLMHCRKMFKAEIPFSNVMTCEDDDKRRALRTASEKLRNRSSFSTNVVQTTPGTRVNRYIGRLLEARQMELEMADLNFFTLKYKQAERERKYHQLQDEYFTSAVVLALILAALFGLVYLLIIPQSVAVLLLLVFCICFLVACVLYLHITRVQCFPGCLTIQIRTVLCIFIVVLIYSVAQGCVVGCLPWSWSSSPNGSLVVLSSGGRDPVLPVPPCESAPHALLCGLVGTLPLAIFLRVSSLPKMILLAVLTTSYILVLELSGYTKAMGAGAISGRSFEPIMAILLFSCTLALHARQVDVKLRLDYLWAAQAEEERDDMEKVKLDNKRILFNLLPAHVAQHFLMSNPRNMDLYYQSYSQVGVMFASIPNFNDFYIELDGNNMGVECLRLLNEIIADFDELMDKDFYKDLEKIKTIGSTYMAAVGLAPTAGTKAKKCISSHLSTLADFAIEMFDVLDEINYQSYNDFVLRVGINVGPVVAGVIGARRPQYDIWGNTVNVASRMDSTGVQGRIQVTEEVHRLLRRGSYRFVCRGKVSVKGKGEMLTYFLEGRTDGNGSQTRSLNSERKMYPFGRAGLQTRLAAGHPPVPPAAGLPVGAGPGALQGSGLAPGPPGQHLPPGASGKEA
UniProt C7C422, sequence (whole entry, looked up): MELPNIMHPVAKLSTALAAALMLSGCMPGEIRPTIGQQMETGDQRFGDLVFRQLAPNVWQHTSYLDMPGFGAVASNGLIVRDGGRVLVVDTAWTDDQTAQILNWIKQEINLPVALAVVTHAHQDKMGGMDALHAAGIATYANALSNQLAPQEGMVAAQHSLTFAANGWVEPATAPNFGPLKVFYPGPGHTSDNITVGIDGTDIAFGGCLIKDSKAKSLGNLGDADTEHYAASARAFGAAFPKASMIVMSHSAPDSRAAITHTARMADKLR
UniProt P46925, sequence (whole entry, looked up): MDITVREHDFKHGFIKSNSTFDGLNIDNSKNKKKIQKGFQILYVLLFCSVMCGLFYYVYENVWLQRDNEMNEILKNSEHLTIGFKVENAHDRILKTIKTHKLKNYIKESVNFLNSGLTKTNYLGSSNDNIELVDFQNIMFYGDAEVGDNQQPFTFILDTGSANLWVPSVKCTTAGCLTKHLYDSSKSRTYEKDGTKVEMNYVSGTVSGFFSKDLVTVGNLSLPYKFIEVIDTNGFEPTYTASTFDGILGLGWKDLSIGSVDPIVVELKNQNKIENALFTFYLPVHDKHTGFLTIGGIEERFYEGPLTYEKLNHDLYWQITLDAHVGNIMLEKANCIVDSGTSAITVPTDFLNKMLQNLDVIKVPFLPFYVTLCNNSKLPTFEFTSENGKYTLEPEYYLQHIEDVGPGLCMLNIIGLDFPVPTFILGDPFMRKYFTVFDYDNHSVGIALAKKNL
UniProt P33535, sequence (whole entry, looked up): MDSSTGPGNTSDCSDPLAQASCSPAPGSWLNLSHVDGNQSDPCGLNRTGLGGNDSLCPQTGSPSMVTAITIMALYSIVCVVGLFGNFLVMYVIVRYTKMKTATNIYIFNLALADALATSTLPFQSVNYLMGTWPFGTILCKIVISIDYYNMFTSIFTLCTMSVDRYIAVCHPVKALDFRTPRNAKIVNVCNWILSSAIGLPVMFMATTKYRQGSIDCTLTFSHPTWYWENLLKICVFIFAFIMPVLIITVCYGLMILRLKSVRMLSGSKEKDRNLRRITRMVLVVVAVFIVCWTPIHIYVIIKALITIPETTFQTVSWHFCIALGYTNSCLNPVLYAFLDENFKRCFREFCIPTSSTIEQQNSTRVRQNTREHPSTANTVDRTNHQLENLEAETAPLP
UniProt P33533, sequence (whole entry, looked up): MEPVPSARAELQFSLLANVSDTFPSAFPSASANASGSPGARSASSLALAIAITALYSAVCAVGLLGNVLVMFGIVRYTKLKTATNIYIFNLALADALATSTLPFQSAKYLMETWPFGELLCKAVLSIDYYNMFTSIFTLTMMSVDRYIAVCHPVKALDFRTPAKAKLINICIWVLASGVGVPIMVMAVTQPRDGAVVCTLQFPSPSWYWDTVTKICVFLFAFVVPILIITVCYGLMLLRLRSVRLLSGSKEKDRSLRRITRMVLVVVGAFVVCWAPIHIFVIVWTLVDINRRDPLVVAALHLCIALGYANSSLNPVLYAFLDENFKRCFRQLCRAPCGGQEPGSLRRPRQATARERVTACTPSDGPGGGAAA

Compound | target | observed | mode | method | sample | with | Ki [µM]
O=C(O)[C@@H]1CS[C@H]2CS[C@H](CS)N21 | VIM-2 (Escherichia coli, UniProt Q5U7L7) |  | inhibitor |  |  |  | 2.9 ± 0.4
CC(=O)N[C@@H](Cc1ccccc1)C(=O)N[C@@H](Cc1ccccc1)C(=O)N[C@@H](Cc1ccccc1)C(=O)N[C@@H](CCCNC(=N)N)C(=O)N[C@@H](CC(C)C)C(=O)N[C@@H](CCCNC(=N)N)C(=O)N[C@@H](CCCNC(=N)N)C(=O)N[C@H](C)C(=O)N[C@@H](CCCNC(=N)N)C(=O)N1CCC[C@H]1C(=O)N[C@@H](CCCCN)C(N)=O | delta opioid receptor | binding |  |  |  |  | > 5
COC(=O)N[C@H](C(=O)NN(CC[C@@](O)(Cc1ccccc1)C(=O)N[C@H]1c2ccccc2C[C@H]1O)Cc1ccc(-c2ccncc2)cc1)C(C)(C)C | Gag-Pol polyprotein, protease (gag-pol, Human immunodeficiency virus type 1 group M subtype B, UniProt P04585) |  |  |  |  |  | 0.0023
COC(=O)C1C(OC(c2ccc(Cl)cc2)c2ccc(Cl)cc2)CC2CCC1N2C (single isomer, unassigned) | dopamine transporter |  |  |  |  |  | 0.0126 ± 0.0004
CC1(C)S[C@H]2CS[C@H](CS)N2[C@@H]1C(=O)O | blaNDM-1 (Klebsiella pneumoniae, UniProt C7C422) |  | inhibitor |  |  |  | 18 ± 3
Cc1cc(O)cc(C)c1C[C@H](N)C(=O)N[C@H](C)C(=O)N[C@@H](Cc1ccccc1)C(=O)N[C@@H](CCC(=O)O)C(=O)N[C@H](C(=O)N[C@H](C(=O)NCC(N)=O)C(C)C)C(C)C | Oprd1 (Rattus norvegicus, UniProt P33533) | binding |  |  | rat brain synaptosomes |  | 0.00016 ± 3e-05
C=CC(=O)N1CCC[C@@H](n2nc(-c3cn(C)c4ccccc34)c3c(N)ncnc32)C1 | EGFR (Homo sapiens, UniProt P00533, L858R/T790M) |  |  |  |  |  | 0.016 ± 0.0052
Nc1ccccc1C(=O)O[C@H]1[C@@H](O)[C@H](n2cnc3c(=O)[nH]cnc32)O[C@@H]1COP(=O)(O)O | ADCY1 (Bos taurus, UniProt P19754) | enzyme activity | inhibitor |  | Sf9 membranes | 5 mM MnCl2 and 100 µM forskolin | 7.4 ± 1.2
Cc1nc2cc(-c3cccc(C#N)c3)ccc2s1 | mGlu5 receptor | binding |  | radioligand binding |  |  | 2.1
CC(C)[C@H](NC(=O)[C@@H]1CCCN1C(=O)[C@@H](N)CCCCN)C(=O)N[C@@H](CCC(=O)O)C(=O)N[C@H](CN[C@@H](CCCNC(=N)N)C(=O)N[C@@H](CCC(N)=O)C(=O)N[C@H](C(=O)O)[C@@H](C)O)Cc1ccccc1 | Plasmepsin II (Plasmodium falciparum, UniProt P46925) |  |  |  |  |  | > 20
CC1(C)SCCSC[C@@H](NC(=O)[C@@H](N)Cc2ccc(O)cc2)C(=O)N[C@@H](Cc2ccccc2)C(=O)N[C@H]1C(N)=O | Oprm1 (Rattus norvegicus, UniProt P33535) | binding |  |  |  |  | 0.0003 ± 4e-05
CCN1CCCC1CNC(=O)c1cc(Br)cc(OC)c1OC (stereo not drawn) [carbon-11 labelled] | dopamine D3 receptor |  |  |  |  | [3H]spiperone | 0.00042
CCCC[C@@H](C(=O)N[C@@H](CC(=O)O)C(=O)N[C@@H](Cc1ccccc1)C(N)=O)N(C)C(=O)[C@@H](Cc1c[nH]c2ccccc12)NC(=O)CNC(=O)[C@@H](Cc1ccccc1)NC(=O)[C@@H](N)Cc1ccc(O)cc1 | δ-opioid receptor | binding |  |  |  |  | 0.00055
CC(C)C[C@H](NC(=O)[C@@H]1CCCN1C(=O)[C@@H](N)CCCCN)C(=O)N[C@@H](CCC(=O)O)C(=O)N[C@H](CN[C@@H](Cc1ccccc1)C(=O)N[C@@H](CCCNC(=N)N)C(=O)N[C@H](C(=O)O)C(C)C)Cc1ccccc1 | Aspartic protease PM4 (Plasmodium vivax, UniProt O60989) |  |  |  |  |  | 0.0006 ± 8e-05
O[C@H]1[C@H](O)[C@@H](CF)NC[C@@H]1O | α-glucosidase (pig liver) |  | inhibitor |  |  |  | > 5000

Excerpt of the above:
Compound | target | observed | mode | method | sample | with | Ki [µM]
CC(C)C[C@H](NC(=O)[C@@H]1CCCN1C(=O)[C@@H](N)CCCCN)C(=O)N[C@@H](CCC(=O)O)C(=O)N[C@H](CN[C@@H](Cc1ccccc1)C(=O)N[C@@H](CCCNC(=N)N)C(=O)N[C@H](C(=O)O)C(C)C)Cc1ccccc1 | Aspartic protease PM4 (Plasmodium vivax, UniProt O60989) |  |  |  |  |  | 0.0006 ± 8e-05
CC(C)[C@H](NC(=O)[C@@H]1CCCN1C(=O)[C@@H](N)CCCCN)C(=O)N[C@@H](CCC(=O)O)C(=O)N[C@H](CN[C@@H](CCCNC(=N)N)C(=O)N[C@@H](CCC(N)=O)C(=O)N[C@H](C(=O)O)[C@@H](C)O)Cc1ccccc1 | Plasmepsin II (Plasmodium falciparum, UniProt P46925) |  |  |  |  |  | > 20
CCN1CCCC1CNC(=O)c1cc(Br)cc(OC)c1OC (stereo not drawn) [carbon-11 labelled] | dopamine D3 receptor |  |  |  |  | [3H]spiperone | 0.00042
